Experimental data gathered from unrelated publications.
A part holds a random share of what one study measured.
Sequence of UniProt Q9C0B0 (30-357, looked up): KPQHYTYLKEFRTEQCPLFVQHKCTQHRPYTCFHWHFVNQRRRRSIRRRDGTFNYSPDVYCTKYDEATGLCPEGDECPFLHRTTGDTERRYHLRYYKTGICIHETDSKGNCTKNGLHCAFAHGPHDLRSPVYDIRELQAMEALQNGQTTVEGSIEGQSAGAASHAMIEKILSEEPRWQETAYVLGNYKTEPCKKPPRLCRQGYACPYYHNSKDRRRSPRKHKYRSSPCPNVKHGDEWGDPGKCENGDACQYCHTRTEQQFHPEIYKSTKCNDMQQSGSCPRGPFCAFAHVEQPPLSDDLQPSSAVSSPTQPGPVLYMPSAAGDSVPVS

Set 1
Target: Sal-like protein 4, full length isoform A (SALL4, Homo sapiens, UniProt Q9UJQ4, residues 1-1053)
Sequence of UniProt Q9UJQ4 (whole entry, looked up): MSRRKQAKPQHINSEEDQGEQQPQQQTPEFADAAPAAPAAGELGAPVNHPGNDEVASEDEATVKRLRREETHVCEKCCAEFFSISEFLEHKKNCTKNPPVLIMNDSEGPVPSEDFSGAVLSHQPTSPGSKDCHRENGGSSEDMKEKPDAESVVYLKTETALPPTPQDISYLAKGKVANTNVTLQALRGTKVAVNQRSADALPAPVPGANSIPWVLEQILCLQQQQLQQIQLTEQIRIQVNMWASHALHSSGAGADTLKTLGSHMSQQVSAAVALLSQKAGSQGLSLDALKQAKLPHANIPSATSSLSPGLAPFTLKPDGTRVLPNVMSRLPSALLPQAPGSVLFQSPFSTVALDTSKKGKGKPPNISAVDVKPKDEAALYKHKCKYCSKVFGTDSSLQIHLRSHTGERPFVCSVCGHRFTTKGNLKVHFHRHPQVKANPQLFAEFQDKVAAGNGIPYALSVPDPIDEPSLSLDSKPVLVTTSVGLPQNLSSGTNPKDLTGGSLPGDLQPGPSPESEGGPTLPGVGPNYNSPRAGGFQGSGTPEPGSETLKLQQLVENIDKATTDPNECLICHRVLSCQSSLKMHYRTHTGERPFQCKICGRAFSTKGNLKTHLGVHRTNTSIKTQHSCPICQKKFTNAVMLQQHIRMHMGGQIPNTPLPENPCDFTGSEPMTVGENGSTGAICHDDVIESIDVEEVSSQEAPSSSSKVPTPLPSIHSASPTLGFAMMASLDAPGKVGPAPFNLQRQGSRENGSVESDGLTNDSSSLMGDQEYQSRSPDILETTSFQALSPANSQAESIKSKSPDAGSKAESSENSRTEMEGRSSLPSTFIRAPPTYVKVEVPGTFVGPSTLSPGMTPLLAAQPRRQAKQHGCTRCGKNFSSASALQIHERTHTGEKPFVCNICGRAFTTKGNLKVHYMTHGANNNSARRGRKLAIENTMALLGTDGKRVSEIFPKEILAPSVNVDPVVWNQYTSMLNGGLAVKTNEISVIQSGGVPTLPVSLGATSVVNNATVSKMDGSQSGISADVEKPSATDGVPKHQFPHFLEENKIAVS
Technique: universal PBM
Molecule type: double-stranded DNA, one strand shown
Medium: in vitro
Concentration: 600 nM
Notes: 8-mer, flanks averaged, mean of replicates
Reading: higher = stronger binding
Strand	E-score
ATGTCCCC	-0.0686
GCGCTCAC	-0.204
CGCGCGGC	-0.312
ACTATAAG	0.308
AACCCAGA	-0.143
AGTGTGCC	-0.123
AGTCAAAT	0.28
CCAGCCAC	-0.205
GTCTACAA	0.121
ATATCGCC	0.0984
CATAGGAG	0.0934
AGAGGCAG	-0.246
ATATAGGC	0.278
AAGTGGCG	0.0166
ATCACAAG	0.145
CTATCTAA	0.114
AAGACAGC	-0.141
AATTCACT	0.201
ATGGAGGC	-0.112
GACCTTCA	-0.111

Set 2
Target: Prothrombin, mature alpha-thrombin (F2, Homo sapiens, UniProt P00734)
Technique: aptamer microarray, sandwich
Molecule type: DNA with 2'F-ANA
Medium: in vitro
Concentration: 200 nM
Notes: whole 15-mer aptamer, many near background
Together with: Cy3 exosite-II aptamer, 400 nM
Reading: higher = stronger binding
Strand: GGTTGGTGTGGTTGG
Modification	mean fluorescence intensity
2'F-ANA at 1 2 3 5 7 10 11 12 15	47.9 a.u.
2'F-ANA at 1 4 5 7 8 9 10 11 15	46.4 a.u.
2'F-ANA at 1 2 5 8 10 11 12 13 14	45.5 a.u.
2'F-ANA at 2 7 9 10 12 14	213 a.u.
2'F-ANA at 2 4 5 7 13 14	42.9 a.u.
2'F-ANA at 3 5 7 9 10 15	55.6 a.u.
2'F-ANA at 1 2 3 7 11 14 15	67.1 a.u.
2'F-ANA at 1 2 3 5 7 8 9 10 11 12 14 15	49.2 a.u.
2'F-ANA at 1 2 4 5 8 10 12 14 15	51.4 a.u.
2'F-ANA at 1 5 9 11 12 15	88.7 a.u.
2'F-ANA at 1 3 4 5 8 9 11 12 14 15	60.1 a.u.
2'F-ANA at 7 8 10 12 13 14 15	131 a.u.
2'F-ANA at 2 3 5 8 12 13 14	56.4 a.u.
2'F-ANA at 1 2 7 10 12 13 15	83.2 a.u.
2'F-ANA at 1 2 3 5 7 9 11 13 14	62.9 a.u.
2'F-ANA at 1 2 6 8 11 12 14	61 a.u.
2'F-ANA at 3 5 6 8 10	51.7 a.u.
2'F-ANA at 1 3 4 5 8 9 11 14 15	58.3 a.u.
2'F-ANA at 1 7 9 10 13 14	46.3 a.u.
2'F-ANA at 1 2 5 7 8 9 10 11 13 15	53.5 a.u.
2'F-ANA at 1 7 10 12	71.1 a.u.
2'F-ANA at 2 3 5 7 8 10 11 13	55.3 a.u.
2'F-ANA at 3 5 6 9 10 11 12 13 14 15	63.6 a.u.
2'F-ANA at 1 3 4 5 7 8 10 12 13 15	50 a.u.
2'F-ANA at 3 4 7 8 9 10 11 12 13	319 a.u.

Set 3
Target: Phosphate system positive regulatory protein PHO4, full length, GST-tagged (PHO4, Saccharomyces cerevisiae, UniProt P07270, residues 1-312)
Technique: competition protein-binding microarray
Molecule type: double-stranded DNA, one strand shown
Medium: in vitro
Concentration: 2 µM
Notes: whole 60-bp probe, lowest competitor level
Together with: Cbf1 competitor, 0.05 µM
Reading: higher = stronger binding
Shared flanks, not repeated: … GTCTTGATTCGCTTGACGCTGCTG
Target sequence (chain): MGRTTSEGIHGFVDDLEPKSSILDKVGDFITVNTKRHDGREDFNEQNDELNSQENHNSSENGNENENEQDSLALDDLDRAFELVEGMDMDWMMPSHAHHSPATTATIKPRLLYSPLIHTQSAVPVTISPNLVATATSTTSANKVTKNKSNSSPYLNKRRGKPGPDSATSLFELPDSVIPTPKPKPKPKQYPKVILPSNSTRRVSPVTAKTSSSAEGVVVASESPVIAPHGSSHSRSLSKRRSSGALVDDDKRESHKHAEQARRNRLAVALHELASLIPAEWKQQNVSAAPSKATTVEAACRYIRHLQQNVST
Strand	fluorescence intensity [a.u.]
GTCTTGTCTCATTGCGTGGTGGGTGTCCCCACTTCA	6500
CTTTTTAGGGACCGTCACGGGAAGCCTGTTGGAGAC	5060
CAGCTTCAACCAAATAACGTGGGTATTCTGGAACGA	10600
AGAAAGTCTTGTAACCAGATGGTGACAAAAACTTGG	3130
CTACTACAGCGTAGGCACGGGTGCATACATCTTCAA	10300
GTAAAAGTGGCAGCACACCTGATCTAATACTAGCTA	6040
GAAATGGCAATGAAAGCCGTGCAATCAGAAACAAAC	6270
CTTCTGTAAATTTGACCGGTGGGTGGACGCGCCCCG	3890
CATACCCAACCTTGCTCTGTGGGTGAAGATATTTGT	4270
TGCTATTTATAGACGCGCGTGTCGGAATCAGGAAGC	10100
CGTCCTAGTGATTGTTGTGTGGGTGCCATGAGGAAG	8220
GCTTTAGTTGCTCTTCGCGTGGTGAATATTTGCAGA	6270
CCCCTCCTCTCTCCGCACGATTTCTTCCTTTCATAT	6730
CATACCCAACCTTGTATAGTGGGTGAAGATATTTGT	4060
TTTGTTTACTAAAAACACATGTGTGTATCTTGACTG	11600
CTTCTGTAAATTTTTCACGTGAATTGACGCGCCCCG	7120
AAAGCGGTAATTTGCTTGGTGGGTGCAGATATCTAT	3550
GCCCTGGACGGAAAGCACGTGCTAAAGTGTTGCCCG	15200
AAACAGTGCTCAATAATCGTGACGGGAGGGTCATTA	5090
GTCGCTGCGCGCGATCATGCGTCTACGCGCTTCTGT	5320
AATTTATCTTGGCAAAACGTGGGTATGGAACTTTTG	15200
TGTCACAGTAGTTATAGCTAAGGTCAATAAGTAGTT	2870
TTCCCAAGTATTGGACACGGGGCTGGAACTTGGAAT	8510
GTAACTGTTGTATTGAACGTGGACCAGGACAAGAAA	10200

Set 4
Target: RNA binding protein fox-1 homolog 2, RRM domain, GST-SBP tag (RBFOX2, Homo sapiens, UniProt O43251-10, residues 100-194)
Technique: RNA Bind-n-Seq
Molecule type: RNA
Medium: in vitro
Concentration: 365 nM
Notes: natural RNA segment, single round, ends assumed
Relative to: no-protein control
Reading: higher = stronger binding
Shared flanks, not repeated: GGGAGUUCUACAGUCCGACGAUC … UGGAAUUCUCGGGUGCCAA
Construct (chain): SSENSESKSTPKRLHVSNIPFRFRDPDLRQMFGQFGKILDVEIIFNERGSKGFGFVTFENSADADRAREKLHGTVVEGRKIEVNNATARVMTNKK
Strand	RBNS enrichment (R)
UGGGGCCCUGUGCCCAGGCCCUGGGCUGGUUGCAGCCCAGCAGUGCCUCCUGCCCCUCCUGGAGUUCAGCUCCUCCUCUGCCGUGGCCCGUGUCUGUCUGGCUCAUCCUU	0.316
AGGAGUUCAGUUGUGAGGAAAGAAGGCUGGAGCUGUGAGAUUCGCUUUUCCCUAGGCUGUUCCGCGUGGGUUACCUUAUCACCCUGGAGCACUUGGUAUUCCAGACCCCU	0.283
AGAAAAGGUUGGAAGCUUUAUACUAAAUGGGCUCCUUCAUGGUGACGCCCCGUCAACCACAAUCAAGAACUGAGGCCUGAGGCUGGUUGUACAAUGCCCACGCCUGCCUG	0.631
AAGAGGCCGAACAUUCCAAGUAGCAGAAGAGAGGGUCUCUCAACUCUGCUCCUCACCUGCAGAAGCCAGUUUGUUUGGCCAUGUGACAAUUGUCCUGUGUUUUUAUAGCA	0.331
CUCCUCCUUUGGAGAAGCAAUAAUUCAUGGGGGAUGAUACAGUAGCACUUUACAAAUGGCUCCAUGUCAUUCAUCCCAGGGGCCAUAAUCUCUUGCACCACCUAUUCUUA	0.223
GGUUGAUUGAUUCACUGAUUAGUUUUACUGCCAUGUGCCUAUAACUAUAGGUUAUUCUCUUUCCUUUUCUAUGUUGUGUUUAUUCUAUUUAUUCUCUACAAUAUAUAAAA	0.303
UCAACAGAAGUAACUGGUAUAUUCUUAGUAACUUUUCUAUGAACUCUUCAAAAAUGGUCACAGAAUGCCUUUUAAAACAUUGUAUAUAAUCUUCACUGUUUCACCAUCUA	0.429
UGCCUAGCUGGUGAUCACACAGCCUGGCCUGUACCUGCACCCCACUGGAUGGUGGUACAUGGUGGCAGGGACAGGACCACACCCAGUUAAGGCCAGACCAGGCUGAGUGU	0.465
CUUCUUCCUCCUGUCCGUCUGAUUUACCUAACUUUGGUCUCGGCUGCUGACUCUUGGAGAGGACCAAAUUACUUUGUAGUAUUUCCCCCGUUUGUGUAAUGUCCUGAAAC	1.22
CGUGCCCGGCCUGCAAACACAUUUUAAUUGACAACACUAGGGCUGUUGUACAAAAUAGUAAUGAUAGCCAUGGAAGUUUUACCUUAUUCUGUGAGAAGUGUUCUUAAACU	0.605
AGGGUCAGAAGUACCUCACAGUGGUUGUGGACAUGGAAGAGUUUUGUCAACACAACACUUUGUCCCCGCUCCGGGAGAUGAGUCAGAUGGUGGCUUGAGUUGUCACUUGG	0.317
UAGCUAGAAUGGCAUGAUGUCACUGUUCUUUUCCUGUGGCUUUUUAUUGUUGUUUCUCAUCAUUCUCACCUCGAGGAAGAGCAAGAGACUUAACCAGCAGGGCAAAUUCC	0.363

Single results of other studies
Strand	target	test	test system	setting	scale	quantity	value
GGGAGUUCUACAGUCCGACGAUCGUUGUGACCCAUUUAACAUACACAAGAAAUCCGCCAAAAAAAAUUUGCAUGUAAUUGACUCCGAUGAUGCCACUUUUCUGAGUGCUAAAUUUGGAAGACAGCUUGUACCUGGUUGGAAGCCAACAGAGGAUUGAGCAUCA	RING finger protein unkempt homolog, zinc fingers 1-6, SBP tag (UNK, Homo sapiens, UniProt Q9C0B0, residues 30-357)	RNA Bind-n-Seq	RNA, in vitro	100 nM, RNA with constant flanks, ends assumed	relative to: input RNA pool, higher = stronger binding	bound/input enrichment	0.607 ratio

Excerpt of the above (set 1):
Strand	E-score
ACTATAAG	0.308
AACCCAGA	-0.143
AGTGTGCC	-0.123
AGTCAAAT	0.28
CCAGCCAC	-0.205
GTCTACAA	0.121
ATATCGCC	0.0984
CATAGGAG	0.0934
AGAGGCAG	-0.246
ATATAGGC	0.278
AAGTGGCG	0.0166
ATCACAAG	0.145
CTATCTAA	0.114
